# Measured values gathered from unrelated publications.
# Parts stem from different laboratories: compare values within a part only.
# Chain of UniProt Q16584 (whole entry, looked up): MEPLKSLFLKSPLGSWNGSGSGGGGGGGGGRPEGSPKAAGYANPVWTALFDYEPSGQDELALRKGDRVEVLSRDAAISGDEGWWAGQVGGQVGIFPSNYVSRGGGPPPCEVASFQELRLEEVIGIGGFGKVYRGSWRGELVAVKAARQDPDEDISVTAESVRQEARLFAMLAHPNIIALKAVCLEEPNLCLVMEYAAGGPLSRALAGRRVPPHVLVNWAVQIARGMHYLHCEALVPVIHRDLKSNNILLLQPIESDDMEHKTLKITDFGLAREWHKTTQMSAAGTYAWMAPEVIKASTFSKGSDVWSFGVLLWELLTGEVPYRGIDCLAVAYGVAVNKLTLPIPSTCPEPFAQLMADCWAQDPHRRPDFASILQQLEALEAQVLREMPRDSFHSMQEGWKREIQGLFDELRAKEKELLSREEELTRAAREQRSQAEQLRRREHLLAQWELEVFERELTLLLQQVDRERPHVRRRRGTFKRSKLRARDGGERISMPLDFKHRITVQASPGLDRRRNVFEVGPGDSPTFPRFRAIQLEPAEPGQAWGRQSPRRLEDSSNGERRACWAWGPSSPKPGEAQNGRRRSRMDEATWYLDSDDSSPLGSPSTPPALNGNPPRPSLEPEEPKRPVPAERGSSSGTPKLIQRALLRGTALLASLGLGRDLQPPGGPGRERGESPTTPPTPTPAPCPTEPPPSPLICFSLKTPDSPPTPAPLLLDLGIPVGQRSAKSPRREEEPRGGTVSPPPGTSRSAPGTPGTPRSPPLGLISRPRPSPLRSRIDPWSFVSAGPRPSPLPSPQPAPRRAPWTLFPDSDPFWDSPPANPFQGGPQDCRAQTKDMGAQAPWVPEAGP
# Chain of UniProt O14757 (whole entry, looked up): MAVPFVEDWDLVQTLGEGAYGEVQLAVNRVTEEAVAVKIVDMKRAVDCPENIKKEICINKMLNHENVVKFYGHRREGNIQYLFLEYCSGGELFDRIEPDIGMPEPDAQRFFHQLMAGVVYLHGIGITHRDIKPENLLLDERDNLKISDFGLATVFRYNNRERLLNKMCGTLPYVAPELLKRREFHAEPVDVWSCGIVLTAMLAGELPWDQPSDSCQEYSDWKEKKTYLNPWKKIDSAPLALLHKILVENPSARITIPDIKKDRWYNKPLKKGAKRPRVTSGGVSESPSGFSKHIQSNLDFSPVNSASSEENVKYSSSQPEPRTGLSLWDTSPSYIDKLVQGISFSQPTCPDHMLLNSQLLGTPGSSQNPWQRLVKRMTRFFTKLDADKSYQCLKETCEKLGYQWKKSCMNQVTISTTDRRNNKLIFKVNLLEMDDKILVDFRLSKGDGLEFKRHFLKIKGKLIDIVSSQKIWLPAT
# Chain of UniProt P16234 (whole entry, looked up): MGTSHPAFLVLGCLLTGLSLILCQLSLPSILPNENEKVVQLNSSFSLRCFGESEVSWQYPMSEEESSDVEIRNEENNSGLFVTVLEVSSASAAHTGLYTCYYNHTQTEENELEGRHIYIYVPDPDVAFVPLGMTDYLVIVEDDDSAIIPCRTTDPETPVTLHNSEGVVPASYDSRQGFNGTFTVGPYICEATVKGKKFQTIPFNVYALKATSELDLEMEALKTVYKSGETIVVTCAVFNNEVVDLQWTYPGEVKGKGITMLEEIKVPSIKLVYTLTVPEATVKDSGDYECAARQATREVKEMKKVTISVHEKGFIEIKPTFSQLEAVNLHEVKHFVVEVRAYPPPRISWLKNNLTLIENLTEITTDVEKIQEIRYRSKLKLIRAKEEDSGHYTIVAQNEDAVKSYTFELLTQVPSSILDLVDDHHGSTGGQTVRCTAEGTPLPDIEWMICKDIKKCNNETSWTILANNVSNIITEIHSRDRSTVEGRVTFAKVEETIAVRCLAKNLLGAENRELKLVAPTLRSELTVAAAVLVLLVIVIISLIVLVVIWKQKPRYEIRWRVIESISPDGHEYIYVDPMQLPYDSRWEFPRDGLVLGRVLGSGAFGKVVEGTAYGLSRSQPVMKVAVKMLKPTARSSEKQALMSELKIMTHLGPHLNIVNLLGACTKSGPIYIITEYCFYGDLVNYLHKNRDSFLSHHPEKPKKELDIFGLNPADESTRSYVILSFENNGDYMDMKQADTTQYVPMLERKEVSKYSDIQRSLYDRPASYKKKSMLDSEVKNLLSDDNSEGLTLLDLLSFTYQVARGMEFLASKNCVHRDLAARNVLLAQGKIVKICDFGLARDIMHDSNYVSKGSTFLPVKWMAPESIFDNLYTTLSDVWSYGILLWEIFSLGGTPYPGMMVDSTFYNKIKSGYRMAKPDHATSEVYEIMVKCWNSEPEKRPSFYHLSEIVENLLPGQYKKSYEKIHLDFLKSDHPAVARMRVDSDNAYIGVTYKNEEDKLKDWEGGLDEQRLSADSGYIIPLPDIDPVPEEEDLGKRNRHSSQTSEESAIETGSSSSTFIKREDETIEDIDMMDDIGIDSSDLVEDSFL
# Chain of UniProt Q9BX84 (whole entry, looked up): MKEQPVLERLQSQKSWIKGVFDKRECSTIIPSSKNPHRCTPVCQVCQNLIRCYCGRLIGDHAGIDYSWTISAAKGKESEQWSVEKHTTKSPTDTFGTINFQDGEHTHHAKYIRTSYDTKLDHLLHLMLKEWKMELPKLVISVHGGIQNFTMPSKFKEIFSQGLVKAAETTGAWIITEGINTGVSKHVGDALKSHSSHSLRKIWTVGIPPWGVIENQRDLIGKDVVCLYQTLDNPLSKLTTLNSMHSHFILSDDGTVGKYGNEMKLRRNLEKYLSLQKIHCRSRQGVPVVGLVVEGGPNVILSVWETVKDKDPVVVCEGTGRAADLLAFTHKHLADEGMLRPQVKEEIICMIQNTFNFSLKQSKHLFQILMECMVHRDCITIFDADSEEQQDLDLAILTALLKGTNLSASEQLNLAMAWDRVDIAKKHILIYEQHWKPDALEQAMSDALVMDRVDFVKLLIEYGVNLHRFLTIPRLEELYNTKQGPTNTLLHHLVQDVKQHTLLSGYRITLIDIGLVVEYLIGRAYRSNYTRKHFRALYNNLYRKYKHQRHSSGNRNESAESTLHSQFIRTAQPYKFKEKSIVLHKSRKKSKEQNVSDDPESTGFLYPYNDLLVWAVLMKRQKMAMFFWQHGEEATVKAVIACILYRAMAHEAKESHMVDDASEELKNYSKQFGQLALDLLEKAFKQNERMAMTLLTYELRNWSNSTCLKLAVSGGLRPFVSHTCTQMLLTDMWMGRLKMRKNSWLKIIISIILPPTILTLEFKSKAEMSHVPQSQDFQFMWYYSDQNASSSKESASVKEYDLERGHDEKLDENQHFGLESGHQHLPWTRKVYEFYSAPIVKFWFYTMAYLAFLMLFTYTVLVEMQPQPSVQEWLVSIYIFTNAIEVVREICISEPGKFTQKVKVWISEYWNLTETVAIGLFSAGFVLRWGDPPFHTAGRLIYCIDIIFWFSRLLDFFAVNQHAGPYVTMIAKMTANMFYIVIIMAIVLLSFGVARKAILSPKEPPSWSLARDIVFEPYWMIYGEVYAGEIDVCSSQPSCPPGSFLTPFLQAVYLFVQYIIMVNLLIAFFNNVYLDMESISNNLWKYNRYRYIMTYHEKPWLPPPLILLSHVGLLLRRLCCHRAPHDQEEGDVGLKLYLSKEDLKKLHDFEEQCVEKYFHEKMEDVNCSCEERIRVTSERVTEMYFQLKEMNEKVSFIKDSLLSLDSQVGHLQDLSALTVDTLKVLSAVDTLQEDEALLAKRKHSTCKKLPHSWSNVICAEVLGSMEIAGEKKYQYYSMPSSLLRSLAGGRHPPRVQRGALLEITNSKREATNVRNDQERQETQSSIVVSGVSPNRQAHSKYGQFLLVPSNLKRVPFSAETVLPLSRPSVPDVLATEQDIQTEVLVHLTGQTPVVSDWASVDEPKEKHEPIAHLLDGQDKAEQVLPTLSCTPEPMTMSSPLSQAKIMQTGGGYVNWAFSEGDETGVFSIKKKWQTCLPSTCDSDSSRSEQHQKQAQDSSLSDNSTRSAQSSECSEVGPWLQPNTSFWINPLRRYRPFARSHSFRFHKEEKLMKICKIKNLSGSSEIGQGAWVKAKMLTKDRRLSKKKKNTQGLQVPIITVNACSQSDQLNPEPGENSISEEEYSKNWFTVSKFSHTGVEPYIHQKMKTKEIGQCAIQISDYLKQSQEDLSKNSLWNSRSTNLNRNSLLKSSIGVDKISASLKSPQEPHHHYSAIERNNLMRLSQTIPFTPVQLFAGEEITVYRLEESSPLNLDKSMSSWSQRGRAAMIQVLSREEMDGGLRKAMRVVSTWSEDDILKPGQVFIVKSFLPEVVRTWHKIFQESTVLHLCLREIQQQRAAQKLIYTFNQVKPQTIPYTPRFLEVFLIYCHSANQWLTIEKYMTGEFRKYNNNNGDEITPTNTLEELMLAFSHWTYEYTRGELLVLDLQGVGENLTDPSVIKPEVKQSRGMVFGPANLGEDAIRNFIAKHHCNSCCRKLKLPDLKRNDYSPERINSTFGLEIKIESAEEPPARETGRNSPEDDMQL

# Study 1 — cell line: mouse MPNST tumor cells; technique: high-content nuclear imaging; item: cell number; tested at: 10 µM; time: 12 h; setting: mean of 2 replicates; reference: plate mean; reading: higher = more cells
SMILES,nuclei count [z-score]
O=C(NC(NC(=S)Nc1ccc(F)c([N+](=O)[O-])c1)C(Cl)(Cl)Cl)C(c1ccccc1)c1ccccc1 (stereo not drawn),-2.17
C=C1/C(=C\C=C2/CCC[C@]3(C)[C@@H]([C@H](C)CCCC(C)C)CC[C@@H]23)C[C@@H](O)C[C@@H]1O,-1.9
O=C(c1ccc(Nc2nccc(-c3cc4ccccc4s3)n2)cc1)N1CCC(N2CCCC2)CC1,-4.91

# Study 2 — observed: cell-free assay; technique: competition with immobilised ligand; tested at: 1 µM
# Structure (SMILES): O=C(O)[C@@H]1[C@@H](Cn2nnc3ccccc3c2=O)CC[C@H]1C(=O)c1ccc(OCCC2CCOCC2)cc1
target,remaining binding
"Platelet-derived growth factor receptor alpha (PDGFRA, Homo sapiens, UniProt P16234)",100%
"Mitogen-activated protein kinase kinase kinase 11 (MAP3K11, Homo sapiens, UniProt Q16584)",92%
"Transient receptor potential cation channel subfamily M member 6 (TRPM6, Homo sapiens, UniProt Q9BX84)",96%
"Serine/threonine-protein kinase Chk1 (CHEK1, Homo sapiens, UniProt O14757)",100%

# Study 3 — host: human; medium: microsomes or S9; tested at: 2 µM; time: 0.5 h
SMILES,remaining compound
CCOc1ccc(CCNC(=O)Cn2cccc2C(=O)c2ccccc2C)cc1OCC,3.53%
CCS(=O)(=O)N1CCN(c2ccc(Cl)c(Cl)c2)CC1,87%
OC(CN(c1ccccc1)c1ccccc1)Cn1cnc2ccccc21 (stereo not drawn),< 1%
CCc1nc2cc(Br)c(C(=O)OC)nc2n1CC(=O)c1ccccc1,1.34%
O=C1COc2ccc(Cl)cc2CN1Cc1cc(F)cc(F)c1,54.9%

# Study 4 — observed: enzyme activity; action: inhibitor; tested at: 0.5 µM; reference: control
# Target: Mitogen-activated protein kinase kinase kinase 8 (MAP3K8, Homo sapiens, UniProt P41279)
# Chain of UniProt P41279 (whole entry, looked up): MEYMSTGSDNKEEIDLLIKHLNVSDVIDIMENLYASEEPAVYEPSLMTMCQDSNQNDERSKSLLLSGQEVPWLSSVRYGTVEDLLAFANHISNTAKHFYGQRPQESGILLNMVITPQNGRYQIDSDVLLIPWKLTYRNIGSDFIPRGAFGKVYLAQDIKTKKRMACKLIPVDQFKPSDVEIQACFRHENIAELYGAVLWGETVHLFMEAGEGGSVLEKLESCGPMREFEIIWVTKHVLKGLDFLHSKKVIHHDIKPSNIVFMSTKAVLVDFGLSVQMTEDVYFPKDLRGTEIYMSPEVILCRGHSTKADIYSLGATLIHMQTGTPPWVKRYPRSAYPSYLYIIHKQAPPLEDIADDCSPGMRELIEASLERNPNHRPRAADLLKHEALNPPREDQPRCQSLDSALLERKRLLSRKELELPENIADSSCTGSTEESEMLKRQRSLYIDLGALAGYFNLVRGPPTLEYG
Structure (SMILES),remaining activity [%]
COc1cc2c(N3CCN(C(=O)Nc4ccc(OC(C)C)cc4)CC3)ncnc2cc1OCCCN1CCCCC1,93.2
O=C(c1ccccc1)c1ccc(N2CCOCC2)cc1O,99.6
FC(F)(F)c1ccc(/C=C/c2nc(COc3ccc(CCCCn4ccnn4)cc3)co2)cc1,90.8
CCN(CC)CCCCN1c2ccccc2Oc2ccc(Cl)cc21,94.7
O=c1cc(N2CCOCC2)oc2c(-c3ccccc3)cccc12,98.2
O=C1NC(=O)/C(=C/c2ccc3c(c2)OC(F)(F)O3)S1,93
O=Nc1c(-c2c(O)[nH]c3ccccc23)[nH]c2ccccc12,106
N#C/C(=C(/N)SC1C=CC=CC1)c1cccc(C(O)c2ccncc2)c1 (stereo not drawn),79.8
Cc1cc(Nc2cc(N3CCN(C)CC3)nc(Sc3ccc(NC(=O)C4CC4)cc3)n2)[nH]n1,115
O=C(O)/C=C/c1cc(Br)c(Br)c(Br)c1Br,83
O=c1c(-c2ccc(F)cc2)c(-c2ccncc2)[nH]n1-c1ccc(Cl)cc1,87.1
Nc1nc(Nc2ccc(S(N)(=O)=O)cc2)nn1C(=S)Nc1c(F)cccc1F,127
CN(C)S(=O)(=O)c1ccc2c(c1)/C(=C/c1cc3c([nH]1)CCCC3)C(=O)N2,94.6
COc1ccc2c(c1)c(C1=C(c3c[nH]c4ccccc34)C(=O)NC1=O)cn2CCCN(C)C,93.8
c1cc(-c2cnn3cc(-c4ccc(OCCN5CCCCC5)cc4)cnc23)ccn1,104
c1ccc2c(-c3ccncc3)c[nH]c2c1,99
O=C1NC(=O)c2c1c1c3ccccc3[nH]c1n1cncc21,100
Oc1cccc(-c2nc(N3CCOCC3)c3oc4ncccc4c3n2)c1,99.2

# Study 5 — technique: RNAcompete; molecule type: RNA; medium: in vitro; tested at: 20 nM; setting: 7-mer, probes averaged, single round; reference: mean of 7-mers; reading: higher = stronger binding
# Target: PABPC1L2, full length, GST fusion (mouse, UniProt A0ABA7IW68)
# Residues (chain): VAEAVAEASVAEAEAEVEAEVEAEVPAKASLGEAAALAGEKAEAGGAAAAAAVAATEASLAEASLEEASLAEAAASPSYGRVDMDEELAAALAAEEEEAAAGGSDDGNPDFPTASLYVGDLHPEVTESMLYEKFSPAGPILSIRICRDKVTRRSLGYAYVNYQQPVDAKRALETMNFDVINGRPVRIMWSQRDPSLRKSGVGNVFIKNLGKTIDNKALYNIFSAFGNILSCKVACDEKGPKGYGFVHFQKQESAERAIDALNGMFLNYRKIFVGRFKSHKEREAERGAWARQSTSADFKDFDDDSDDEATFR
Oligonucleotide,7-mer Z-score
AAUAAGG,0.646
CGCCGCC,-0.42
AAAUGCG,1.32
AUGUAUG,-0.197
AUUCAUG,0.0424
UGUCGUU,-0.407
CGGGGCU,0.2
GAAAUGA,0.427

# Study 6 — cell line: HaCaT; tested at: 100 µM; time: 36 h
SMILES,viability [%]
O=C1C(O)=C([C@H]2CC[C@H](c3ccc(Cl)cc3)CC2)C(=O)c2ccccc21,11.3
COc1ccc(-c2ccc3cc(C(=O)O)ccc3c2)cc1[C@]12C[C@H]3C[C@H](C[C@H](C3)C1)C2,6.14
Nc1c(CC(=O)O)cccc1C(=O)c1ccc(Br)cc1,100
C=C1CCN([C@H](C)[C@](O)(Cn2cncn2)c2ccc(F)cc2F)CC1,41.7

# Repeated from above (study 4):
Structure (SMILES),remaining activity [%]
O=c1c(-c2ccc(F)cc2)c(-c2ccncc2)[nH]n1-c1ccc(Cl)cc1,87.1
O=C(O)/C=C/c1cc(Br)c(Br)c(Br)c1Br,83
CN(C)S(=O)(=O)c1ccc2c(c1)/C(=C/c1cc3c([nH]1)CCCC3)C(=O)N2,94.6
